{"data": "Experimental data of several laboratories", "note": "A part holds a random share of what one study measured. Changes are numbered by the printed parent chain."}
{"data": "Set 1", "target": "Histone acetyltransferase KAT6A, both winged helices, GST fusion (KAT6A, Homo sapiens, UniProt Q92794, residues 1-181)", "method": "protein binding microarray", "molecule type": "double-stranded DNA, one strand shown", "medium": "in vitro", "concentration": "not given", "notes": "8-mer, flanks averaged, mean of 2 arrays, mostly near background", "reference": "not given", "reading": "higher = stronger binding", "Residues (chain)": "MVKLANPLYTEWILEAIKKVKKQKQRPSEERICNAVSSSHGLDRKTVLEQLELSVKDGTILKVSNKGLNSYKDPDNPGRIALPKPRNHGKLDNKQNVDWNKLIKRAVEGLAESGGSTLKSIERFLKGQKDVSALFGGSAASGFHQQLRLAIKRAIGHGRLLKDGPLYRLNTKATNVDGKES"}
{"Oligonucleotide": "GTGCTGTA", "E-score": -0.0522}
{"Oligonucleotide": "TCAGGACA", "E-score": -0.179}
{"Oligonucleotide": "AAACCCCC", "E-score": -0.0649}
{"Oligonucleotide": "AAACCGAT", "E-score": 0.0735}
{"Oligonucleotide": "CAAACGCG", "E-score": 0.229}
{"Oligonucleotide": "GTTTCCGA", "E-score": 0.206}
{"Oligonucleotide": "CCCGAGGC", "E-score": 0.159}
{"Oligonucleotide": "CTACGAGA", "E-score": -0.214}
{"data": "Set 2", "target": "Sal-like protein 4, full length isoform B (SALL4, Homo sapiens, UniProt Q9UJQ4-2, residues 1-616)", "method": "universal PBM", "molecule type": "double-stranded DNA, one strand shown", "medium": "in vitro", "concentration": "not given", "notes": "8-mer, flanks averaged, mean of replicates", "reading": "higher = stronger binding"}
{"Oligonucleotide": "CGGTACAG", "E-score": -0.164}
{"Oligonucleotide": "AGGGTGAT", "E-score": -0.0178}
{"Oligonucleotide": "GCGACGGA", "E-score": -0.251}
{"Oligonucleotide": "CTCGCAAG", "E-score": -0.125}
{"Oligonucleotide": "AGTTAGTA", "E-score": 0.117}
{"Oligonucleotide": "CTCGCAAA", "E-score": -0.0513}
{"Oligonucleotide": "CAACGGCC", "E-score": -0.213}
{"Oligonucleotide": "AGTGCCCG", "E-score": -0.219}
{"data": "Set 3", "target": "TAR DNA-binding protein 43, full length, His tag (TARDBP, Homo sapiens, UniProt Q13148, residues 1-414)", "method": "RNA Bind-n-Seq", "molecule type": "RNA", "medium": "in vitro", "concentration": "20 nM", "notes": "6-mer, flanks averaged, single round", "with": "150 mM KCl", "reference": "input library", "reading": "higher = stronger binding"}
{"Oligonucleotide": "GACUUC", "6-mer enrichment (R)": 0.595}
{"Oligonucleotide": "ACCUUC", "6-mer enrichment (R)": 0.567}
{"Oligonucleotide": "UUUUGG", "6-mer enrichment (R)": 0.864}
{"Oligonucleotide": "CUAGCU", "6-mer enrichment (R)": 0.6}
{"Oligonucleotide": "AAGUAA", "6-mer enrichment (R)": 0.649}
{"Oligonucleotide": "GCUUUC", "6-mer enrichment (R)": 0.598}
{"Oligonucleotide": "ACGGAG", "6-mer enrichment (R)": 1.62}
{"Oligonucleotide": "GUCAGU", "6-mer enrichment (R)": 0.839}
{"data": "Further values, each from its own experiment", "starting sequence": "viral docking peptide; KKAKRRLFTISDS; partner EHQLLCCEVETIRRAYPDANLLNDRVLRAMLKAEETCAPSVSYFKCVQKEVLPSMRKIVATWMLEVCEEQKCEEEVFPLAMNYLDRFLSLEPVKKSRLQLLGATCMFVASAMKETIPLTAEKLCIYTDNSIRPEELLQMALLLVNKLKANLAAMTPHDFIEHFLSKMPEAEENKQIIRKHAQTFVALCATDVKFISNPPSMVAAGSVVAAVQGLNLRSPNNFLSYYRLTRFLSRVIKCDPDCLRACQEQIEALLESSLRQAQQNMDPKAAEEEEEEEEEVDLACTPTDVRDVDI"}
{"Substitution": "D12A", "target": "CCND1, cyclin fold, Cln2 fusion (human)", "test": "yeast growth competition, sequencing", "test system": "yeast", "setting": "weak parent motif", "how to read": "reference: not given, higher = stronger binding", "endpoint": "normalised enrichment score", "result": 0.0746}
{"note": "Excerpt of the above (set 1):"}
{"Oligonucleotide": "CTACGAGA", "E-score": -0.214}
{"Oligonucleotide": "CCCGAGGC", "E-score": 0.159}
